Measurements of several laboratories.
Each line is one published result; not all experiments were run side by side. ± marks the error that the study gave.

Structure (SMILES)	assay	test system	conditions	half-life [h]
C=CC1CN2CCC1CC2C(OC(=O)NCCCCCCNC(=O)OC(c1ccnc2ccc(OC)cc12)C1CC2CCN1CC2C=C)c1ccnc2ccc(OC)cc12 (centres unmarked)	chemical stability	human, plasma	pH 7.4	> 90
[2H]C([2H])([2H])C([2H])([2H])C([2H])([2H])OC(C(=O)OC1CCNCC1)(c1ccccc1)c1ccccc1	–	male human, plasma	oral, 12 mg, multiple doses	75.7
CC[C@H](C)C(=O)N1CCC(NC(=O)Nc2ccc(OC(F)(F)F)c(F)c2)CC1	–	human, plasma	oral, 24 mg, single dose, healthy volunteers	41.8
CC(=CCC(O)C(C)=Cc1csc(C)n1)CC=CC(C)C(O)C(C)C(=O)C(C)(C)C(O)CC(=O)O (centres unmarked)	–	human, plasma	intravenous infusion, 48 mg/m2 KOS-1584, 3 h infusion, cycle 1	31.3 ± 9.76
CC(C)C[C@H](NC(=O)[C@H](Cc1cccc2ccccc12)NC(=O)[C@H](CNC(=O)c1ccc2cc(F)ccc2c1)NC(=O)[C@H](CO)NC(=O)C1CCNCC1)C(=O)N[C@@H](CN)C(=O)N1CCC[C@H]1C(=O)N[C@H](C(N)=O)[C@@H](C)O	chemical stability	male human, serum	1 mM, pH 7.4	> 24
CSCC[C@H](NC(=O)CNC(=O)CNC(=O)[C@H](CO)NC(=O)[C@H](CC(C)C)NC(=O)[C@@H]1CCCN1C(=O)[C@H](CO)NC(=O)[C@H](CC(N)=O)NC(=O)[C@H](CC(C)C)NC(=O)[C@H](C)NC(=O)[C@@H](NC(=O)[C@H](CC(C)C)NC(=O)[C@H](Cc1c[nH]cn1)NC(=O)[C@H](CC(C)C)NC(=O)[C@@H](NC(=O)[C@@H]1CCCN1C(=O)[C@H](CCC(N)=O)NC(=O)[C@H](Cc1ccccc1)NC(=O)[C@H](CC(=O)O)NC(=O)[C@H](CCCNC(=N)N)NC(=O)[C@H](Cc1c[nH]cn1)NC(=O)[C@H](CO)NC(=O)[C@H](Cc1c[nH]cn1)NC(=O)[C@H](CCSC)NC(=O)[C@H](CC(=O)O)NC(=O)CNC(=O)[C@H](CCCNC(=N)N)NC(=O)[C@H](CC(=O)O)NC(=O)CNC(=O)[C@@H](N)CCCNC(=N)N)C(C)C)C(C)C)C(N)=O	metabolic stability	cynomolgus monkey, blood	20 µg/mL, whole blood	0.0101
CSCC[C@H](NC(=O)CNC(=O)[C@H](CC(=O)O)NC(=O)[C@@H](NC(=O)[C@@H](NC(=O)[C@@H](NC(=O)CNC(=O)[C@H](CCC(N)=O)NC(=O)[C@H](CCSC)NC(=O)[C@H](CC(=O)O)NC(=O)[C@H](C)NC(=O)[C@H](C)NC(=O)[C@@H](NC(=O)[C@H](CO)NC(=O)[C@@H](N)CC(C)C)[C@@H](C)O)C(C)C)C(C)C)[C@@H](C)O)C(=O)N[C@@H](C)C(=O)N[C@@H](CO)C(=O)NCC(=O)N[C@@H](CC(C)C)C(=O)N[C@@H](CC(=O)O)C(=O)N[C@@H](CCCCN)C(=O)N[C@@H](CC(=O)O)C(=O)N[C@@H](Cc1ccc(O)cc1)C(=O)N[C@@H](CC(C)C)C(=O)N[C@@H](CCCCN)C(=O)N1CCC[C@H]1C(=O)N[C@@H](CC(=O)O)C(=O)N[C@@H](CC(=O)O)C(=O)O	–	human, serum	intravenous, 1.66 mg/kg, patients, infusion	0.054
CCCCCCCCC=CCCCCCCCC(=O)OCC1OC(n2ccc(N)nc2=O)C(F)(F)C1O (centres unmarked)	–	beagle dog, plasma	intravenous, 2 to 6 mg/kg	0.05 to 0.07
